Published values from different studies.
A part holds a random share of what one study measured. Changes are numbered by the printed parent chain.
Chain of UniProt Q8N568 (whole entry, looked up): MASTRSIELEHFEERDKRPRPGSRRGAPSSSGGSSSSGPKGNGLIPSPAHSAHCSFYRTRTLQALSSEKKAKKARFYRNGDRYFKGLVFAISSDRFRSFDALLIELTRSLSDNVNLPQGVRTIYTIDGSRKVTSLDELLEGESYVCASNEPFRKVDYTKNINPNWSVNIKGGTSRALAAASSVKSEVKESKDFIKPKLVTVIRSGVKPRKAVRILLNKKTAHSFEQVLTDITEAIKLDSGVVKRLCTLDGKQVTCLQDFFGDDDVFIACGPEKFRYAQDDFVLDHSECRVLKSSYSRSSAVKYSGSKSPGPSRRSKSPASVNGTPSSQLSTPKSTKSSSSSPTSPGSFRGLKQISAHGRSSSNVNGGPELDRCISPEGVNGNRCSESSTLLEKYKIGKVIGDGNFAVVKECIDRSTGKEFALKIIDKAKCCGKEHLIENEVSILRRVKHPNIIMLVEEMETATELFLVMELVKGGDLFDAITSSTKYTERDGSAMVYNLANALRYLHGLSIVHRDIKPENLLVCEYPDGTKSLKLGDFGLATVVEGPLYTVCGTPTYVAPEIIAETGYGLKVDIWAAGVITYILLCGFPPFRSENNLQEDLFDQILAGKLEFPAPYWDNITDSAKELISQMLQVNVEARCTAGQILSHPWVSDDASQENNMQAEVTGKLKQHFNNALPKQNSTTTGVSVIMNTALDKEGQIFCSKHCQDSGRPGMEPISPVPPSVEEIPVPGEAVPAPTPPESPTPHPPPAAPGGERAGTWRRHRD

Sample 1 — target: inorganic phosphate, free oxyanion; technique: microfluidic competitive inhibition; matrix: in vitro, cell-free expressed; concentration: not given; direction: lower = stronger binding; measurement: phosphate dissociation constant
Setting: derived from inhibition constants, unchanged parent 615000 nM
Parent: PafA, mature enzyme, eGFP fusion (Elizabethkingia meningoseptica, UniProt Q9KJX5); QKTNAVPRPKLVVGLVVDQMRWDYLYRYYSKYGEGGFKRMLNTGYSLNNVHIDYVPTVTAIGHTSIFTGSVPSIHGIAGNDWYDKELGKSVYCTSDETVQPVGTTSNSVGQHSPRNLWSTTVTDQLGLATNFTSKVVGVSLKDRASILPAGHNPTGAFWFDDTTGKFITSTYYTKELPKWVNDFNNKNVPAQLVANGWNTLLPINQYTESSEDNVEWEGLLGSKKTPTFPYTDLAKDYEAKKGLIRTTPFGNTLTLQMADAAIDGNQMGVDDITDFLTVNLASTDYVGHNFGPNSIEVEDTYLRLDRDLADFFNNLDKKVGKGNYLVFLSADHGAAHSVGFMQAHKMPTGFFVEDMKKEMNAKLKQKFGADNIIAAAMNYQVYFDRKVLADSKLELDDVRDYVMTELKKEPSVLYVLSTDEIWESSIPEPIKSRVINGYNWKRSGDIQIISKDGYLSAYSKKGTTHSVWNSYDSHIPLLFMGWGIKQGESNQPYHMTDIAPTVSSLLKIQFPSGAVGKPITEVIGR
N153G: 465 µM
N116G: 578 µM
T521V: 665 µM
E395V: 624 µM
D53V: 344 µM
A157V: 645 µM
A336G: 474 µM
L305V: 852 µM

Sample 2 — target: CCNA2, cyclin fold, Cln2 fusion (human); technique: yeast growth competition, sequencing; matrix: yeast; setting: strong parent motif; relative to: not given; direction: higher = stronger binding; measurement: normalised enrichment score
Parent: viral docking peptide; PTARRRLLHDLDT; partner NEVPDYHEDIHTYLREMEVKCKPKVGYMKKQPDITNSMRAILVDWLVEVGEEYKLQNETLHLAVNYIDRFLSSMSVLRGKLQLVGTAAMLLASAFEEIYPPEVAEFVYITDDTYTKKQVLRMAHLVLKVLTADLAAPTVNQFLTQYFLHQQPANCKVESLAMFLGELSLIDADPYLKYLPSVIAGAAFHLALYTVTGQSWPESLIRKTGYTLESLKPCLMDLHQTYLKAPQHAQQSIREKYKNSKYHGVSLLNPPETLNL
D10A: 1.82
R4A: -0.1
R5K L8F: 5.86
R5A: 0.488
T2A: 3.07
R5K: 1.77
H9F: 6.8
P1A: 2.29

Sample 3 — read-out: ligand displacement; concentration: 10 µM; measurement: inhibition
Target: D(1B) dopamine receptor (DRD5, Homo sapiens, UniProt P21918)
C[C@@H]1CN(c2cc(-c3n[nH]c4ccc(OC5(C)CC5)cc34)ncn2)C[C@H](C)O1: 16.1%
c1ccc(C2CCN(c3cnc4c(N5CCOCC5)nccn34)CC2)cc1: -30.7%
COc1cc(-c2cn(C3CCc4c(F)cccc4N(CC(F)(F)F)C3=O)nn2)ccc1-n1cnc(C)c1 (centres unmarked): -8.33%

Other studies, line by line
O=C1NC(=O)c2c1c1c3ccccc3n3c1c1c2c2ccccc2n1[C@H]1CC[C@@H]3O1
remaining activity (Serine/threonine-protein kinase DCLK2 (DCLK2, Homo sapiens, UniProt Q8N568); enzyme activity, inhibitor; 0.5 µM; relative to: control): 89.6%

Repeated from above (sample 3):
C[C@@H]1CN(c2cc(-c3n[nH]c4ccc(OC5(C)CC5)cc34)ncn2)C[C@H](C)O1: 16.1%
c1ccc(C2CCN(c3cnc4c(N5CCOCC5)nccn34)CC2)cc1: -30.7%
COc1cc(-c2cn(C3CCc4c(F)cccc4N(CC(F)(F)F)C3=O)nn2)ccc1-n1cnc(C)c1 (centres unmarked): -8.33%
